Experimental data collected from several papers.
Protocols differ between the studies behind these lines. “And” joins repeats or separate records; there may be more than shown.
Target: Procathepsin L (CTSL, Homo sapiens, UniProt P07711)
Sequence of UniProt P07711 (whole entry, looked up): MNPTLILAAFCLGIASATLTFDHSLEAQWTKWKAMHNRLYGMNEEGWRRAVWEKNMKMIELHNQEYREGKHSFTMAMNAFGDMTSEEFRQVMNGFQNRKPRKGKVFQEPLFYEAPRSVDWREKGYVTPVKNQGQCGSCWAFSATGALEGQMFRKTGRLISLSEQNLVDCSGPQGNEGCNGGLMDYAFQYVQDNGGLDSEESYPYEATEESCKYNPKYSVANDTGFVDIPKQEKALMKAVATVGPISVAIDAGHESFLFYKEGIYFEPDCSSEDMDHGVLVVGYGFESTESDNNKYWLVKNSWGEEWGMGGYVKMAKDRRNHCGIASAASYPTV
Effect on: enzyme activity
Mode: inhibitor

| SMILES | assay | setting | endpoint | result |
| --- | --- | --- | --- | --- |
| CCC1c2ccsc2CCN1C(=O)Cn1nnc2ccccc21 (stereo not shown) | FRET |  | IC50 | > 100000 nM |
| CC(=O)NCCCC[C@H](NC(=O)[C@H](CCCNC(=N)N)NC(=O)[C@@H]1CCCN1C(=O)[C@H](C)NC(=O)[C@@H](N)CCCCN)C(=O)N[C@@H](CCC(N)=O)C(=O)N[C@@H](CC(C)C)C(=O)N[C@@H](C)C(=O)N[C@H](C(=O)N[C@@H](CCCCN)C(=O)N[C@@H](C)C(=O)N[C@@H](C)C(=O)N[C@@H](CCCNC(=N)N)C(=O)N[C@@H](CCCCN)C(=O)N[C@@H](CO)C(=O)N[C@@H](C)C(=O)N1CCC[C@H]1C(=O)N[C@@H](C)C(=O)O)[C@@H](C)O | fluorescence | pH 6 | Ki | 10700 nM |
| N=C(N)NCCC[C@H](NC(=O)[C@@H]1CCCN1C(=O)[C@H](N)Cc1ccccc1)C(=O)CCl | fluorescence |  | IC50 | 19 nM |
| CCC[C@H](NC(=O)[C@H](CC(C)C)NC(=O)OCc1ccccc1)C(=O)C(=O)NCc1ccccn1 |  | pH 5.5 | IC50 | 0.69 nM and < 1 nM |
| CC(C)C[C@@H]1NC(=O)[C@H](C(C)C)NC(=O)[C@H](C)NC(=O)[C@H](Cc2ccc(O)cc2)NC(=O)[C@H](CCC(N)=O)NC(=O)[C@H](CC(C)C)NC(=O)[C@@H](Cc2ccc(O)cc2)NC(=O)CSC[C@@H](C(N)=O)NC(=O)[C@H](CCC(=O)O)NC(=O)[C@H](CCCNC(=N)N)NC(=O)[C@H](CCCNC(=N)N)NC(=O)[C@H](CCCCN)NC(=O)[C@H](Cc2c[nH]cn2)NC(=O)[C@H](CCCNC(=N)N)NC1=O |  |  | IC50 | 10900 nM |
| C=CCn1c(C)cc(C(=O)COn2nnc3ccc(S(=O)(=O)N(C)C)cc32)c1C | FRET |  | IC50 | > 100000 nM |
| CC(C)C[C@H](NC(=O)[C@H](CCC(N)=O)NC(=O)[C@H](CCCCN)NC(=O)[C@H](CCCNC(=N)N)NC(=O)[C@@H]1CCCN1C(=O)[C@H](C)NC(=O)[C@@H](N)CCCCN)C(=O)N[C@@H](C)C(=O)N[C@H](C(=O)N[C@@H](CCCCN)C(=O)N[C@@H](C)C(=O)N[C@@H](C)C(=O)N[C@@H](CCCNC(=N)N)C(=O)N[C@@H](CCCCN(C)C)C(=O)N[C@@H](CO)C(=O)N[C@@H](C)C(=O)N1CCC[C@H]1C(=O)N[C@@H](C)C(=O)O)[C@@H](C)O | fluorescence | pH 6 | Ki | 4550 nM |
| CC1CCc2c(sc3ncnc(Sc4nnc(CN5CCCC5)o4)c23)C1 (stereo not shown) | FRET |  | IC50 | > 100000 nM |
| CCCC(NC(=O)C(CC(C)C)NC(=O)OCc1ccccc1)C(=O)C(=O)NCc1ccccn1 (stereo not shown) |  | pH 5.5 | IC50 | 1.62 nM |
| COc1cccc2[nH]c(C(=O)N[C@@H](CC(C)C)C(=O)N[C@@H](C[C@@H]3CCNC3=O)C(=O)CO)cc12 |  | pH 5.5 | IC50 | 456 nM and ~500 nM |
